Published values from different studies.
Each numbered part is a random draw from the data of one study; scales do not carry over between parts. Positions count from the first letter of the parent shown.
Chain of UniProt Q56UN5 (whole entry, looked up): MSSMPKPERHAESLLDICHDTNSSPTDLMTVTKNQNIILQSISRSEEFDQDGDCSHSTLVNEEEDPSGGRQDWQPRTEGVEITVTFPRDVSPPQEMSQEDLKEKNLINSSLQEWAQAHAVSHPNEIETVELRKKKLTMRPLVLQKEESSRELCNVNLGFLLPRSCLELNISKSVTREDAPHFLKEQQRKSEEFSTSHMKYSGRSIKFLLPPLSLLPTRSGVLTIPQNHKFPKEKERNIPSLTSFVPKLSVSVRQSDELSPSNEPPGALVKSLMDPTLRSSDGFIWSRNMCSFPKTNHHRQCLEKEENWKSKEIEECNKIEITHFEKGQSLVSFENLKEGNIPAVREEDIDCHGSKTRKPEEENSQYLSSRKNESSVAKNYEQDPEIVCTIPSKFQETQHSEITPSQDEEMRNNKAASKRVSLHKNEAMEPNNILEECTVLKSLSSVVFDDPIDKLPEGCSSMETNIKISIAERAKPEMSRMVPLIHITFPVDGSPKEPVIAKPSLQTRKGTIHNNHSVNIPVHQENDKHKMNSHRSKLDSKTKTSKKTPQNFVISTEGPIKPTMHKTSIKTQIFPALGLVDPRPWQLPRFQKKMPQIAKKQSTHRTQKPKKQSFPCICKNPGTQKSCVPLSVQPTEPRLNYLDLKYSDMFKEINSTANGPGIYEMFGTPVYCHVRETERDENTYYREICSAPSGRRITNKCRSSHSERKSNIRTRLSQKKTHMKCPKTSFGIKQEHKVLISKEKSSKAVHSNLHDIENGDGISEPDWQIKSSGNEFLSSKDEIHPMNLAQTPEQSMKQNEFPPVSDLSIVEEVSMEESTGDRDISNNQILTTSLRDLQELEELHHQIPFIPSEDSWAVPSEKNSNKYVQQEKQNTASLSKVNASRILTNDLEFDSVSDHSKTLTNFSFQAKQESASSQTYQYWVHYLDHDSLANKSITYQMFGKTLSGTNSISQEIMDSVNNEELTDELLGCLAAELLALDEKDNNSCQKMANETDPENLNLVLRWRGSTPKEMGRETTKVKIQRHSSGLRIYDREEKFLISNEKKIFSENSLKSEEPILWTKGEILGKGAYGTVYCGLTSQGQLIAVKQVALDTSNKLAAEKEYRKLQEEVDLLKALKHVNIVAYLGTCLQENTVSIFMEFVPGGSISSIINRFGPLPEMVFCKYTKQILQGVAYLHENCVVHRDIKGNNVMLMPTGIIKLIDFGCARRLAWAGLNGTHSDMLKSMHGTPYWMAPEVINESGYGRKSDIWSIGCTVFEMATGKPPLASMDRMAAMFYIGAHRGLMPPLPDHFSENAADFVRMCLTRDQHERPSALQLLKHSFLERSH
Chain of UniProt Q6ZN16 (whole entry, looked up): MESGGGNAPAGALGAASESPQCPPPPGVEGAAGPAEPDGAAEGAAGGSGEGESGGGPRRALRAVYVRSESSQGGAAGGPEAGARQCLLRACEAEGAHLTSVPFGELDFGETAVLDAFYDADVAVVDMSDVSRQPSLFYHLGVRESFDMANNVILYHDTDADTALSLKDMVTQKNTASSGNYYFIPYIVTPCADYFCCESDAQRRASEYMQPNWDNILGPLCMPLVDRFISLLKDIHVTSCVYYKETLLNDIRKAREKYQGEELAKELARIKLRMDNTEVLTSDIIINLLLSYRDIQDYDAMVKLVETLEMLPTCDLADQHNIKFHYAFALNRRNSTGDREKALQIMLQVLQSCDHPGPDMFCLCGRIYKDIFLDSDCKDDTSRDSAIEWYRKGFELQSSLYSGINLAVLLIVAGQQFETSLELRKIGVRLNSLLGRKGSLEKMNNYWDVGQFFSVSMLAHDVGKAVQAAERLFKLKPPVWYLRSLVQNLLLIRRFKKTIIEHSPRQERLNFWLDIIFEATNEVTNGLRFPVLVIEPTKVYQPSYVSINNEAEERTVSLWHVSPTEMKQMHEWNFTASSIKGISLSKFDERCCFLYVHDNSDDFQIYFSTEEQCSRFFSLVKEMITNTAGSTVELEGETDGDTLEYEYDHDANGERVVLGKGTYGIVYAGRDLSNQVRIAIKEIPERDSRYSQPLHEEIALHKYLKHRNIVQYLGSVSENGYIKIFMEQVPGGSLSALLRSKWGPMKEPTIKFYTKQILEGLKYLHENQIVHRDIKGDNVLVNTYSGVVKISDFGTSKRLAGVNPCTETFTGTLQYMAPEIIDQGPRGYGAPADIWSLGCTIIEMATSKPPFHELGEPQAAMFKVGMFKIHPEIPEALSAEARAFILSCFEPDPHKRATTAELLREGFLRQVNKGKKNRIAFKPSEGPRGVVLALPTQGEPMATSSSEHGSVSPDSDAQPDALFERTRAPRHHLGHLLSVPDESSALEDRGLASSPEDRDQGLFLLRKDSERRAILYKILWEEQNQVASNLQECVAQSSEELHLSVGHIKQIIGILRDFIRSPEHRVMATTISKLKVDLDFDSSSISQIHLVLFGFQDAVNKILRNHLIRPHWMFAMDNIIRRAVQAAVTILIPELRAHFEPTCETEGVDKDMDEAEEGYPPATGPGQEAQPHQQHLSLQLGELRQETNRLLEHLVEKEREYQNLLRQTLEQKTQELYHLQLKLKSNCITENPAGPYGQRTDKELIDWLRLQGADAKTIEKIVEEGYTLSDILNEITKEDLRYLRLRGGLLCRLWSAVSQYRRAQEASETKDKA
Chain of UniProt O75460 (whole entry, looked up): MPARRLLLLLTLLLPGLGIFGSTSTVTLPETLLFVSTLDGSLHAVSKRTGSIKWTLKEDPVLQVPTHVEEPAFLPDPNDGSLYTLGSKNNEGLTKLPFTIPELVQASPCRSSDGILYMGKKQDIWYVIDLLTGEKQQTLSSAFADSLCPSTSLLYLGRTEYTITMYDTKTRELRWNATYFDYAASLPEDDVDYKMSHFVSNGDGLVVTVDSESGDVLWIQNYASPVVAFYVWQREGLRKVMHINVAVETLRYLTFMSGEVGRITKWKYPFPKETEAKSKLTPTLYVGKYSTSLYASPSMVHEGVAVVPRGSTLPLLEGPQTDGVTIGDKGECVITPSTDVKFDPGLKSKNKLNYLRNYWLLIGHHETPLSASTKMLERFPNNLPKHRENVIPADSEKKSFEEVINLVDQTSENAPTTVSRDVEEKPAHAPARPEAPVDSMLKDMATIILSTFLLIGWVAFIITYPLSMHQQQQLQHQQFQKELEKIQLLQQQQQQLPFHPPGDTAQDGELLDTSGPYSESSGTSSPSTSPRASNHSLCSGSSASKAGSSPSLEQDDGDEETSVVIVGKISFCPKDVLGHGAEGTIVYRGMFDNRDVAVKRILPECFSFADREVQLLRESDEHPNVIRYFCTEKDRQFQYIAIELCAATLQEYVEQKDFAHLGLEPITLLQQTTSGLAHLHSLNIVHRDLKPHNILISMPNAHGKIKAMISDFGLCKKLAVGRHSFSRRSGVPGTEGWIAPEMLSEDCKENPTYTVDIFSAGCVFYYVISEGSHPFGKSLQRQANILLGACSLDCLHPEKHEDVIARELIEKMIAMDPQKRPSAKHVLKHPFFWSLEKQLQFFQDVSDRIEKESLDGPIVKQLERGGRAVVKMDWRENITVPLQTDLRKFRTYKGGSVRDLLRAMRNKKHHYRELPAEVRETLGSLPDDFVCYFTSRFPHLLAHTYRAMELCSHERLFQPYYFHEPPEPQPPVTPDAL
Chain of UniProt Q8N752 (whole entry, looked up): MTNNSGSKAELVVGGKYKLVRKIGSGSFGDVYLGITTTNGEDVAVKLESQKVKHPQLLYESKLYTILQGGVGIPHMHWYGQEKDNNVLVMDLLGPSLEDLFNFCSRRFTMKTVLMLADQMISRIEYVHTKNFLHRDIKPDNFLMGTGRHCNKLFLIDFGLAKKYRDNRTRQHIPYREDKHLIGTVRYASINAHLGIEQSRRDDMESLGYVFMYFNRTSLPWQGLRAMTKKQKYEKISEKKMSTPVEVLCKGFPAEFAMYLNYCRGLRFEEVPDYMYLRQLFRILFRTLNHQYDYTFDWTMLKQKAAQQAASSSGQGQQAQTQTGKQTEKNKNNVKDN

Study 1 — read-out: enzyme activity; mode: inhibitor; tested at: 0.5 µM; baseline: control
Target: Ephrin type-A receptor 8 (EPHA8, Homo sapiens, UniProt P29322)
Chain of UniProt P29322 (whole entry, looked up): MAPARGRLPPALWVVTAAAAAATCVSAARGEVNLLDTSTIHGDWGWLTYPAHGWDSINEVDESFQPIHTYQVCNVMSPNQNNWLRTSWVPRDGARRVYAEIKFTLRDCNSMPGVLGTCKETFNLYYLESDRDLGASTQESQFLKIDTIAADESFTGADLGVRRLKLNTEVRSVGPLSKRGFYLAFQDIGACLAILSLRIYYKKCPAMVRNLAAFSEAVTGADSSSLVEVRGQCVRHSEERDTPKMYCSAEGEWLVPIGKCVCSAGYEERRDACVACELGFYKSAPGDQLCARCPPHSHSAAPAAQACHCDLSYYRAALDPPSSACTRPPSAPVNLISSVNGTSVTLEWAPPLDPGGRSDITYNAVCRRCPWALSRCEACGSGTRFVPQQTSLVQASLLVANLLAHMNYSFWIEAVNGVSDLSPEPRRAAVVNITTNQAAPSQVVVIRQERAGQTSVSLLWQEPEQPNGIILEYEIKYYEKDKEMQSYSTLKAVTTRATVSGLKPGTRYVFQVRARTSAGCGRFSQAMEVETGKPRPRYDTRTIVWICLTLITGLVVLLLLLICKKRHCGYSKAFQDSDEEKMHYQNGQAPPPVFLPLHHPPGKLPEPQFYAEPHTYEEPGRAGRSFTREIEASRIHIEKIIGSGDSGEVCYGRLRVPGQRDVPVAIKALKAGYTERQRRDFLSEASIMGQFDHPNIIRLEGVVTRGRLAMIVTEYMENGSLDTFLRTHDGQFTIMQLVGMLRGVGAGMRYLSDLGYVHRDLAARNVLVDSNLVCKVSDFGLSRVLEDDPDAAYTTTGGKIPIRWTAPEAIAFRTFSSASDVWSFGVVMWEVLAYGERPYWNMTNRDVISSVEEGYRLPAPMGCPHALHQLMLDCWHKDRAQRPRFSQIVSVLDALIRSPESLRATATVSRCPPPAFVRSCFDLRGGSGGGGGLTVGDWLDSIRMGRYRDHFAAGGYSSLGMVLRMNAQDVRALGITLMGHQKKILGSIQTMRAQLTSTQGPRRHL
CC(C)[C@H](CO)Nc1nc(Nc2cc(N)cc(Cl)c2)c2ncn(C(C)C)c2n1 has a remaining activity of 92.5%.
O=C(Nc1cccc(Nc2cc(Nc3cccc(C(F)(F)F)c3)ncn2)c1)C1CC1 has a remaining activity of 103%.
With COc1ccc(C(=O)Nc2sc3c(c2C(N)=O)CCCC3)cc1OC the remaining activity was 114%.
With C#Cc1cccc(Nc2ncnc3cc(OCCOC)c(OCCOC)cc23)c1 the remaining activity was 89.7%.
With COc1cc2nccc(Oc3ccc(NC(=S)NC(=O)c4ccccc4C)cc3)c2cc1OC the remaining activity was 84.1%.
With O=C1NC(=O)C(c2cn(CCCO)c3ncccc23)=C1c1cnccn1 the remaining activity was 86.9%.
With N#CC(C#N)=C(N)/C(C#N)=C/c1ccc(O)cc1 the remaining activity was 102%.
The remaining activity of Cc1ccc(Nc2nccc(N(C)c3ccc4c(C)n(C)nc4c3)n2)cc1S(N)(=O)=O is reported as 90%.
With O=c1c2ccccc2[nH]c(=S)n1CCN1CCC(=C(c2ccc(F)cc2)c2ccc(F)cc2)CC1 the remaining activity was 102%.
For COc1cc2ncnc(Nc3ccc(F)c(Cl)c3)c2cc1OCCCN1CCOCC1, the remaining activity was 84.5%.
For Cc1ccc(NC(=O)c2ccc(CN3CCN(C)CC3)cc2)cc1Nc1nc(-c2cccnc2)cs1, the remaining activity was 93.1%.
With Cn1c2ccccc2c2c3c(c4c5ccccc5n(CCC#N)c4c21)CNC3=O the remaining activity was 91.7%.
Cn1sc(=O)n(Cc2ccccc2)c1=O gave a remaining activity of 94.4%.
For CCOC(=O)c1c(C)[nH]c(/C=C2\C(=O)Nc3ccccc32)c1C, the remaining activity was 88.7%.
Nc1ccc2ncnc(NCCc3ccc(Oc4ccccc4)cc3)c2c1 gave a remaining activity of 101%.
For CO[C@H]1C[C@@H]2CC[C@@H](C)[C@@](O)(O2)C(=O)C(=O)N2CCCC[C@H]2C(=O)O[C@H]([C@H](C)C[C@@H]2CC[C@@H](O)[C@H](OC)C2)CC(=O)[C@H](C)/C=C(\C)[C@@H](O)[C@@H](OC)C(=O)[C@H](C)C[C@H](C)/C=C/C=C/C=C/1C, the remaining activity was 92.7%.

Study 2 — target: CEBPB, bZIP domain (human); technique: DHFR protein complementation; sample: yeast; baseline: wild-type JUN-FOS pair; reading: higher = stronger binding
Setting: single substitutions, most at no-binding floor
Parent: JUN, bZIP domain (human); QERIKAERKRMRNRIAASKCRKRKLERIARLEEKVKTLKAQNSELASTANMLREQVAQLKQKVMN; partner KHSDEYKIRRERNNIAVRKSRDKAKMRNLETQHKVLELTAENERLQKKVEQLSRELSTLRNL
For `A46W`, the binding fitness was -1.43 natural log.
With `A29E` the binding fitness was -1.24 natural log.
`N42G` gave a binding fitness of -1.5 natural log.
The binding fitness of `S47Q` is reported as -1.23 natural log.
With `K39V` the binding fitness was -1.29 natural log.
`E32S` gave a binding fitness of -1.28 natural log.
`L45I` has a binding fitness of -1.37 natural log.
`Q41M` gave a binding fitness of -1.29 natural log.

Study 3 — technique: aptamer microarray, sandwich; molecule type: DNA with 2'F-ANA; sample: in vitro; tested at: 200 nM; added: Cy3 exosite-II aptamer, 400 nM; reading: higher = stronger binding; oligonucleotide: GGTTGGTGTGGTTGG
Target: Prothrombin, mature alpha-thrombin (F2, Homo sapiens, UniProt P00734)
Setting: whole 15-mer aptamer, many near background
For `2'F-ANA at 1 3 4 5 7 9 10 14`, “mean fluorescence intensity” read 43.4 a.u.
`2'F-ANA at 1 2 4 9 10`: “mean fluorescence intensity” 47.9 a.u.
`2'F-ANA at 2 3 5 7 13 15`: “mean fluorescence intensity” 75.8 a.u.
For `2'F-ANA at 1 3 11 13 14 15`, “mean fluorescence intensity” read 83 a.u.
For `2'F-ANA at 1 7 9 11 13`, “mean fluorescence intensity” read 131 a.u.
Under “mean fluorescence intensity”, `2'F-ANA at 4 5 6 7 9 10 11 12 13 14 15` is recorded as 50.2 a.u.
Under “mean fluorescence intensity”, `2'F-ANA at 1 3 4 12 13` is recorded as 368 a.u.
Under “mean fluorescence intensity”, `2'F-ANA at 1 2 5 6 7 10` is recorded as 44.8 a.u.

Study 4 — Structure (SMILES): CC(C)(O)c1cncc(-c2nc3ccc(F)cc3n2C2CC2)c1; tested at: 1 µM
For Tyrosine-protein kinase ABL1, non-phosphorylated (ABL1, Homo sapiens, UniProt P00519, F317L); cell-free assay, competition with immobilised ligand: remaining binding read 100%.
For MAP3K1 (Homo sapiens, UniProt Q13233); cell-free assay, competition with immobilised ligand: remaining binding read 100%.
For PIK3CA (Homo sapiens, UniProt P42336, E542K); cell-free assay, competition with immobilised ligand: remaining binding read 84%.
The remaining binding was 93% (MAP3K19 (Homo sapiens, UniProt Q56UN5); cell-free assay, competition with immobilised ligand).
LIM domain kinase 2 (LIMK2, Homo sapiens, UniProt P53671); cell-free assay, competition with immobilised ligand — remaining binding: 100%.
For MAP3K15 (Homo sapiens, UniProt Q6ZN16); cell-free assay, competition with immobilised ligand: remaining binding read 100%.
For AAK1 (Homo sapiens, UniProt Q2M2I8); binding: remaining binding read 100%.
MAP3K3 (Homo sapiens, UniProt Q99759); cell-free assay, competition with immobilised ligand — remaining binding: 99%.
The remaining binding was 100% (MAP3K6 (Homo sapiens, UniProt O95382); cell-free assay, competition with immobilised ligand).
It gave 100% for remaining binding (Non-receptor tyrosine-protein kinase TYK2, JH1 (TYK2, Homo sapiens, UniProt P29597); cell-free assay, competition with immobilised ligand).
It gave 100% for remaining binding (BMPR2 (Homo sapiens, UniProt Q13873); cell-free assay, competition with immobilised ligand).
It gave 100% for remaining binding (SRC (Homo sapiens, UniProt P12931); cell-free assay, competition with immobilised ligand).
It gave 100% for remaining binding (TTK (Homo sapiens, UniProt P33981); cell-free assay, competition with immobilised ligand).
The remaining binding was 100% (EGFR (Homo sapiens, UniProt P00533, del747-750/T751S); cell-free assay, competition with immobilised ligand).
SRPK1 (Homo sapiens, UniProt Q96SB4); cell-free assay, competition with immobilised ligand — remaining binding: 100%.
For CSNK1A1L (Homo sapiens, UniProt Q8N752); cell-free assay, competition with immobilised ligand: remaining binding read 100%.
For MAP3K4 (Homo sapiens, UniProt Q9Y6R4); cell-free assay, competition with immobilised ligand: remaining binding read 100%.
The remaining binding was 100% (ERN1 (Homo sapiens, UniProt O75460); cell-free assay, competition with immobilised ligand).
It gave 100% for remaining binding (EPHA7 (Homo sapiens, UniProt Q15375); cell-free assay, competition with immobilised ligand).

For quick reference, copied from above (study 4):
For CSNK1A1L (Homo sapiens, UniProt Q8N752); cell-free assay, competition with immobilised ligand: remaining binding read 100%.
The remaining binding was 93% (MAP3K19 (Homo sapiens, UniProt Q56UN5); cell-free assay, competition with immobilised ligand).
For Tyrosine-protein kinase ABL1, non-phosphorylated (ABL1, Homo sapiens, UniProt P00519, F317L); cell-free assay, competition with immobilised ligand: remaining binding read 100%.
The remaining binding was 100% (ERN1 (Homo sapiens, UniProt O75460); cell-free assay, competition with immobilised ligand).
For MAP3K4 (Homo sapiens, UniProt Q9Y6R4); cell-free assay, competition with immobilised ligand: remaining binding read 100%.
